Measurements gathered from unrelated publications.
Parts stem from different laboratories: compare values within a part only. Substitutions count along the parent as printed.

Series 1
Target: Prothrombin, mature alpha-thrombin (F2, Homo sapiens, UniProt P00734)
Method: aptamer microarray, sandwich
Molecule type: DNA with 2'F-ANA
Medium: in vitro
Tested at: 200 nM
Notes: whole 15-mer aptamer, many near background
Together with: Cy3 exosite-II aptamer, 400 nM
Direction: higher = stronger binding
Endpoint: mean fluorescence intensity
Sequence: GGTTGGTGTGGTTGG
Modification = 2'F-ANA at 2 7 8 9 11 13 14 15; result = 141 a.u.
Modification = 2'F-ANA at 7 8 10 13 15; result = 192 a.u.
Modification = 2'F-ANA at 1 2 3 4 5 8 12 15; result = 120 a.u.
Modification = 2'F-ANA at 3 4 5 7 12 14; result = 56.1 a.u.
Modification = 2'F-ANA at 2 3 4 6 8 9 12 13; result = 546 a.u.
Modification = 2'F-ANA at 5 11 12 14; result = 48.3 a.u.

Series 2
Target: Histone acetyltransferase KAT6A, winged helix 1, GST fusion (KAT6A, Homo sapiens, UniProt Q92794, residues 1-85)
Method: protein binding microarray
Molecule type: double-stranded DNA, one strand shown
Medium: in vitro
Tested at: not given
Notes: 8-mer, flanks averaged, mean of 2 arrays, mostly near background
Reference: not given
Direction: higher = stronger binding
Endpoint: E-score
Residues (chain): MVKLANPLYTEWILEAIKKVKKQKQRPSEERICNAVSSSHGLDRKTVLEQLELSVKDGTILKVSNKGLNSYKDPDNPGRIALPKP
Sequence = CCCCAGGG; result = -0.0999
Sequence = AGGTTTAT; result = -0.0221
Sequence = CGCTTTCC; result = 0.29
Sequence = GCCTTCTA; result = -0.176
Sequence = ACGAGAAC; result = -0.107
Sequence = AATTTCAC; result = -0.213

Series 3
Target: CCNB1, cyclin fold, Cln2 fusion (human)
Method: yeast growth competition, sequencing
Medium: yeast
Notes: strong parent motif
Reference: not given
Direction: higher = stronger binding
Endpoint: normalised enrichment score
Parent: RBL2 docking peptide (human); STTRRRLFVENDS
Substitution = S13Q; result = 0.47
Substitution = T2V; result = 0.61
Substitution = T2R; result = 1.11
Substitution = D12A; result = -0.0842
Substitution = V9F; result = 1.64
Substitution = N11Q; result = 1.35
Substitution = L7Y; result = -0.144
Substitution = T2F; result = -0.0894
Substitution = E10L; result = -0.17
Substitution = E10C; result = 0.536
Substitution = R4T; result = 0.896

Other studies, line by line
Substance = PhoQ, residues 284 288 289 292 302 303 NLMGRA; target = PhoP, residues 12 14 15 18 19 AWHSL (Escherichia coli, UniProt P23836); assay = Sort-seq, measured: YFP reporter; system = E. coli; setting = PhoQ-PhoP variant library, together with: 10 µM Mg2+; how to read = reference: high Mg2+ state, higher = stronger signaling; endpoint = fold induction; result = 6

A few entries again (series 1):
Modification = 2'F-ANA at 7 8 10 13 15; result = 192 a.u.
Modification = 2'F-ANA at 1 2 3 4 5 8 12 15; result = 120 a.u.
Modification = 2'F-ANA at 3 4 5 7 12 14; result = 56.1 a.u.
Modification = 2'F-ANA at 2 3 4 6 8 9 12 13; result = 546 a.u.
